Measured values collected from several papers.
Every numbered part comes from another study and shows a few of its results, in no order. Positions count from the first letter of the parent shown.

Block 1
Target: Sal-like protein 4, full length isoform A (SALL4, Homo sapiens, UniProt Q9UJQ4, residues 1-1053)
UniProt Q9UJQ4, sequence (whole entry, looked up): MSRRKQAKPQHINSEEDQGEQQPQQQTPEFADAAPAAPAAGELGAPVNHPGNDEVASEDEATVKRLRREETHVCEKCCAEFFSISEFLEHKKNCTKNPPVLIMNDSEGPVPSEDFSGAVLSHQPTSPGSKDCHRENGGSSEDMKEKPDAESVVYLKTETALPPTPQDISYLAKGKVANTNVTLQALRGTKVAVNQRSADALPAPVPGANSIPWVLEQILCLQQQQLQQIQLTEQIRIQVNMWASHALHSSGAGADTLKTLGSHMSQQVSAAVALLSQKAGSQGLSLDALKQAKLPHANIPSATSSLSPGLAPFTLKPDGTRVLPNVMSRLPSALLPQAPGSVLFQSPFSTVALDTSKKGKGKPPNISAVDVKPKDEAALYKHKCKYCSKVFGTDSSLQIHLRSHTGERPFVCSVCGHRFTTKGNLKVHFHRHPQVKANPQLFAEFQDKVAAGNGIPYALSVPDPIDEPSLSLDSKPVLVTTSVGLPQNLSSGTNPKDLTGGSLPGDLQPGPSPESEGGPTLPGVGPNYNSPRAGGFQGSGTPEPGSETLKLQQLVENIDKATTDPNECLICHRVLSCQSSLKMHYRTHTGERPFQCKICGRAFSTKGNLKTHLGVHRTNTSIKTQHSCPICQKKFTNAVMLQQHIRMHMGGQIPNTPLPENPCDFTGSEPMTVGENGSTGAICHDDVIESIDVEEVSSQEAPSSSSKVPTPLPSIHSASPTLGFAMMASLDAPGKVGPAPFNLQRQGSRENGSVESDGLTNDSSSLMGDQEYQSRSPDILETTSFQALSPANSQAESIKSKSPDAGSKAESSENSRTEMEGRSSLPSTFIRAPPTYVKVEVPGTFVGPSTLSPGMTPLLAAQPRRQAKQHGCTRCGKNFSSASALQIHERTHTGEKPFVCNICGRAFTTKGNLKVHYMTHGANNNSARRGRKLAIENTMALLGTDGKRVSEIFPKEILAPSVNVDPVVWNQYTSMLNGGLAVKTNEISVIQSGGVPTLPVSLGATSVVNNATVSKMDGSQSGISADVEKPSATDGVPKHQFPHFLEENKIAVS
Technique: universal PBM
Form: double-stranded DNA, one strand shown
Medium: in vitro
Concentration: 600 nM
Notes: 8-mer, flanks averaged, mean of replicates
Reading: higher = stronger binding
| Strand | E-score |
| --- | --- |
| TAAACCTA | 0.108 |
| CCAGTAGA | -0.0391 |
| GCTGGAAC | -0.124 |
| CTATAGTC | 0.143 |
| ATCTCTAC | 0.128 |
| AACGTCTG | -0.177 |
| GAGATGAC | -0.0725 |
| ATCAATAC | 0.271 |
| CACACGGA | -0.229 |
| ACGGTAAG | -0.0779 |
| GAAGGTGA | -0.0463 |
| AGCGCGTG | -0.174 |
| ATCGGCGA | -0.254 |
| CCAGCAAC | -0.173 |
| AGGAGGAT | -0.0671 |
| AGAACTTA | 0.0856 |
| CGAGTCAC | -0.165 |
| CCGTCTTA | -0.0908 |
| ATACAACG | 0.144 |
| ACGTAAAT | 0.153 |
| CAGCGCGC | -0.323 |
| TAGGCGCA | -0.168 |
| CGCAATGA | 0.138 |
| CAAAGATA | 0.198 |
| GTGCGTCA | -0.226 |

Block 2
Target: PABPC1L2, full length, GST fusion (mouse, UniProt A0ABA7IW68)
Technique: RNAcompete
Form: RNA
Medium: in vitro
Concentration: 20 nM
Notes: 7-mer, probes averaged, single round
Relative to: mean of 7-mers
Reading: higher = stronger binding
Target sequence (chain): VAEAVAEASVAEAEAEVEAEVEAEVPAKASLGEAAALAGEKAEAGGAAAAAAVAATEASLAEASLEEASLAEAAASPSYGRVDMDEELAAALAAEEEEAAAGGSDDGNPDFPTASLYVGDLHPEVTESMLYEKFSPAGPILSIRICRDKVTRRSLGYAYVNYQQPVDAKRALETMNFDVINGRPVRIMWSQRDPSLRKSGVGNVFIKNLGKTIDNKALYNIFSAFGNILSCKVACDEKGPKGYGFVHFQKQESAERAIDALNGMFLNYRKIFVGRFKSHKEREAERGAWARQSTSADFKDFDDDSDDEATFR
| Strand | 7-mer Z-score |
| --- | --- |
| UGAGCUG | -0.0989 |
| CAGAGUG | -0.0681 |
| CACACCC | -0.277 |
| UGACUGU | -0.306 |
| ACCAAUA | 0.104 |
| AAAUUUA | 1.59 |
| GAAUACU | -0.0772 |
| UGUUUAG | -0.403 |
| UCACAAC | -0.202 |
| CUUGCCC | -0.412 |
| CCGGACU | -0.171 |
| GUUCGAU | -0.373 |
| ACCAGCA | -0.0971 |
| GAAUUCG | -0.226 |
| GUAACGU | -0.273 |
| UGCCUAU | -0.333 |
| AAUCCUU | -0.126 |
| CCCUUCA | -0.304 |
| CCACACA | -0.229 |
| GUCUGCG | -0.362 |
| CGGGCGC | -0.121 |

Block 3
Target: Prothrombin, mature alpha-thrombin (F2, Homo sapiens, UniProt P00734)
Technique: aptamer microarray, sandwich
Form: DNA with 2'F-ANA
Medium: in vitro
Concentration: 200 nM
Notes: whole 15-mer aptamer, many near background
With: Cy3 exosite-II aptamer, 400 nM
Reading: higher = stronger binding
Strand: GGTTGGTGTGGTTGG
| Modification | mean fluorescence intensity [a.u.] |
| --- | --- |
| 2'F-ANA at 1 2 7 9 10 11 12 13 | 58.7 |
| 2'F-ANA at 2 5 7 8 9 10 11 12 13 | 50.5 |
| 2'F-ANA at 2 4 6 8 9 10 11 13 15 | 60.9 |
| 2'F-ANA at 1 2 5 6 9 11 12 14 | 50.9 |
| 2'F-ANA at 1 5 13 14 15 | 44.8 |
| 2'F-ANA at 1 3 4 6 7 8 10 12 14 15 | 53.7 |
| 2'F-ANA at 1 6 7 8 10 11 | 58 |
| 2'F-ANA at 1 4 5 6 8 11 12 15 | 86.7 |
| 2'F-ANA at 3 5 9 11 12 14 15 | 57.3 |
| 2'F-ANA at 2 5 7 8 9 10 11 13 | 48.7 |
| 2'F-ANA at 3 4 9 11 14 15 | 303 |
| 2'F-ANA at 2 3 5 6 9 11 12 13 14 15 | 54.2 |
| 2'F-ANA at 3 7 8 9 10 11 12 15 | 587 |
| 2'F-ANA at 1 2 3 4 5 6 7 10 11 13 14 15 | 48.7 |
| 2'F-ANA at 2 7 8 10 15 | 224 |
| 2'F-ANA at 1 7 10 12 14 15 | 54.3 |
| 2'F-ANA at 2 3 4 5 6 7 9 12 14 | 67.5 |
| 2'F-ANA at 3 7 8 13 14 15 | 602 |
| 2'F-ANA at 4 9 11 13 14 15 | 69.4 |
| 2'F-ANA at 1 5 7 9 10 11 12 13 14 15 | 46.8 |
| 2'F-ANA at 4 5 6 9 11 12 13 15 | 69.5 |
| 2'F-ANA at 3 5 8 10 11 12 14 | 54.8 |
| 2'F-ANA at 2 3 9 13 14 15 | 379 |
| 2'F-ANA at 1 3 6 7 11 13 14 | 112 |
| 2'F-ANA at 3 4 8 11 12 | 842 |

Block 4
Target: Ras GTPase-activating protein-binding protein 1, full length (G3BP1, Homo sapiens, UniProt Q13283)
UniProt Q13283, sequence (whole entry, looked up): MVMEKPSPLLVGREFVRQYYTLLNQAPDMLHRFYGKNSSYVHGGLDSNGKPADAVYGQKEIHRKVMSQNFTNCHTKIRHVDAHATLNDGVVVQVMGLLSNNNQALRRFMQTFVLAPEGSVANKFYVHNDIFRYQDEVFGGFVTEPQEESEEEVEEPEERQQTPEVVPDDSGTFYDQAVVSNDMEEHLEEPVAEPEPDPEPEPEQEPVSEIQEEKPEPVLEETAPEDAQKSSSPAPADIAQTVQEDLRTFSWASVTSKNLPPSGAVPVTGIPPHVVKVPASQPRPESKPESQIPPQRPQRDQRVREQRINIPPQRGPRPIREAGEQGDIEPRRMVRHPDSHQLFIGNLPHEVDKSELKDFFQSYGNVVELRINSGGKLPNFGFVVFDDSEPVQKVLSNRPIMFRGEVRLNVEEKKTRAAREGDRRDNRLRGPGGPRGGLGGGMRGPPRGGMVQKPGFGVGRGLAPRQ
Technique: RNA Bind-n-Seq
Form: RNA
Medium: in vitro
Concentration: 200 nM
Notes: whole 134-nt RNA, ends assumed
With: 150 mM KCl
Relative to: input library
Reading: higher = stronger binding
| Strand | log2 enrichment |
| --- | --- |
| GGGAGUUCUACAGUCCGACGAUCGCAGGAAGUAAAAACAAAUGGAAAUGCUUCGGAUAGUGGCAGGGGUGGGGGUUGCUAAGGAAAGGGUGGGAUGGGAGUGGGUAAAGUGUUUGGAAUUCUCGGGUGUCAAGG | 0.807 |
| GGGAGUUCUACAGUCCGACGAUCGCUGUUGGAGUGGAUCCGCCGCACAAUCCCGUGGCUGGAGAACCGGGUGCCCGAGAACACCAUGCAUGCCAUGCAACAGAAGCUGGAGGAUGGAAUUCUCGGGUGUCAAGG | -2 |
| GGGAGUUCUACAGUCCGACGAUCUGGGAGGUGGAUUUUGUUUAUUUUUUUAGCUCAUUUCCAGGGGUGGGAAUUUUUUUUUAAUAUUUGUCAUGAAUAAAGUUGUUUUUGAAAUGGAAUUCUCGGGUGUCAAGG | 0.0322 |
| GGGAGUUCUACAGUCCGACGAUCUGGGAGGUGGAUUUUGUUUAUUUUUUUAGCUCAUUUCCAGGGGGGGGAAUUUUUUUUUAAUAUGUGUCAUGAAUAAAGUUGUUUUUGAAAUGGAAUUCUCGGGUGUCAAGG | 0.438 |
| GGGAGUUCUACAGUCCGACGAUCUGGGAGGUGGAUUUUGUUUAUUUUUUUAGCUCAUUUCCAGGGGUGGGAAUUUUUUUUUAAUAUGUGUCAUGAAUAAAGGUGUUUUUGAAAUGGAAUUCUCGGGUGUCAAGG | 0.049 |
| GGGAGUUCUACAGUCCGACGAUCCACAGACAACACGCACCCACACAGACACAGAGGGAAGGGCUUGGGAUGGGGACAGGGUGCACAGCAGGGCGGGGUAGGACCCCAGCCCCUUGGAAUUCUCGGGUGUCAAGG | 2 |
| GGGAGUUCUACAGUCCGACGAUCUGGCCCUGGUGGCAUGCGGGCAGGAAGAGGUGGCCUCAUGGAUCGUGGUGGUCCCGGUGGAAUGUUCAGAGGUGGCCGUGGUGGAGACAGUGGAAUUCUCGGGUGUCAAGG | -0.0209 |
| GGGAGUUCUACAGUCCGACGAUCGCAGGAAAUAAAAACAAAUGGAAAUGCUUCGGAUAGUGGCAGGGGUGGGGGUUGCUAAGGAAAGGGUGGGAUGGGAGUGGGUAAAGAGUUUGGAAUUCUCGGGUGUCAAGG | 0.716 |
| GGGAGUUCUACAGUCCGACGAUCCUCAAGUCCUGUGCUACACAUCGUAUGUACCGAAUCGGUGGUUUUUGGUUUGGAAAGUAUUAUGUUACGCCGUUCGGAUCUGCACUUCCAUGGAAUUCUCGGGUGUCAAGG | -0.577 |
| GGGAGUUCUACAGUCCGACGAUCUGGGAGGUGGAUUUUGUUUAUUUUUUUAGCUCAUUUCCAGGGGUGGGAAUUUUUUUUUAAUGUGUGUCAUGAAUAAAGUUGUUUUUGAAAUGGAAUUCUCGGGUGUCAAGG | 0.276 |

Block 5
Target: CCNA2, cyclin fold, Cln2 fusion (human)
Technique: yeast growth competition, sequencing
Medium: yeast
Notes: weak parent motif
Relative to: not given
Reading: higher = stronger binding
Starting sequence: RP1L1 docking peptide (human); TLGLGPLSFTLED
| Change | normalised enrichment score |
| --- | --- |
| TLGLAPLSFTLED [G5A] | -0.564 |
| TLGLGPLSFTLEA [D13A] | -0.558 |
| TLGAGPLSFTLED [L4A] | -0.775 |
| TLGLGALSFTLED [P6A] | -0.581 |
| ALGLGPLSFTLED [T1A] | -0.459 |
| TLGLGPASFTLED [L7A] | -0.303 |
| TLGLGPLSFTLAD [E12A] | -0.0237 |

Block 6
Target: Histone acetyltransferase KAT6A, both winged helices, GST fusion (KAT6A, Homo sapiens, UniProt Q92794, residues 1-181)
Technique: protein binding microarray
Form: double-stranded DNA, one strand shown
Medium: in vitro
Concentration: not given
Notes: 8-mer, flanks averaged, mean of 2 arrays, mostly near background
Relative to: not given
Reading: higher = stronger binding
Construct (chain): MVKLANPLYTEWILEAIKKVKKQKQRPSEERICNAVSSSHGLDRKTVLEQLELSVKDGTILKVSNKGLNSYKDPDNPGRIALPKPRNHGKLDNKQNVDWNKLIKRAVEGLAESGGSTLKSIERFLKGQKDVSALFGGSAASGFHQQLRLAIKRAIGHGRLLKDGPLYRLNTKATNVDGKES
| Strand | E-score |
| --- | --- |
| AAGAGTAT | -0.182 |
| ACTTGCGG | 0.0862 |
| TATTAACA | 0.0864 |
| CTGGTAGC | -0.125 |
| GTAACCGA | 0.0499 |
| ATAATGGA | -0.127 |
| CCGTGAGG | 0.153 |
| CATCTCGG | -0.018 |
| CCCTGCGA | -0.0824 |
| CGGGTCGA | 0.0854 |
| CCTCAACA | -0.0912 |
| AACATTCT | -0.131 |
| GGTGTCGA | 0.0262 |
| ATACCCTG | -0.121 |
| ACATGTGA | -0.0465 |
| CCAGTGGC | -0.166 |
| AAATGGTT | -0.0238 |
| TATTGGCA | -0.237 |
| GTGCCCAA | -0.0328 |
| CAGCCCTA | -0.0354 |
| AATCGATC | -0.11 |
| ATTTGACG | 0.166 |
| GATGTAGC | -0.0598 |
| GAAACAGA | 0.00346 |
| ATCACAAG | -0.0528 |
